Assay results collected from several papers.
Protocols differ between the studies behind these lines. Values joined by “and” are separate records of one study, mostly repeats; a detail may differ. ± marks the error that the study gave.

| SMILES | cell line | test | test system | conditions | scale | quantity | result |
| --- | --- | --- | --- | --- | --- | --- | --- |
| C[C@@H]1CN(C(=O)c2ccc(NC(=O)c3cc(O[C@H](C)c4c(Cl)ccc(F)c4Cl)c(N)nn3)cc2)C[C@H](C)N1 | Ba/F3 EML4-ALK variant 1 S1206F | cell viability |  |  |  | Emax | 100% |
| CCn1cc(-c2cc(Cn3ccoc3=N)cc3c2CCN([C@@H](C)c2cc(OC)ccn2)C3=O)c(C(F)(F)F)n1 | MKN-74 | cell growth, inhibitor |  | 120 h |  | EC50 | > 30 µM |
| CSc1cc(Oc2ccnc3[nH]c(=O)cnc23)ccc1NC(=O)Nc1cc(C(C)(C)C)nn1-c1ccccc1 | patient-derived cell lines | reverse phase protein array |  | 1 µM, 4 h, mean of three patients, unit not given | relative to: DMSO | phosphorylated STAT5 level | 0.61 |
| OCCn1cc(-c2ccc3c(c2)CC/C3=N\O)c(-c2ccncc2)n1 | iCell Cardiomyocytes (hiPSC-derived) | CellTiter-Glo |  | concentration not given, 24 h | relative to: control | ATP level | 95.6% |
| CCCCCCNC(=O)n1cc(F)c(=O)[nH]c1=O | SW-403 | LC-MS, measured: Cer(d18:1/18:0) |  | 0.1 µM |  | ceramide level | 0.58 ± 0.06 pmol/mg protein |
| CCCN1CCN(c2ccc3[nH]c(-c4ccc5[nH]c(-c6ccc(OCC)c(OCC)c6)nc5c4)nc3c2)CC1 | NCI/ADR-RES | cell growth, NCI-60 SRB |  | 10 µM, 48 h |  | growth percent | 79.4% |
| NC(N)=NN=C(C=Cc1ccc([N+](=O)[O-])o1)C=Cc1ccc([N+](=O)[O-])o1 | ARPE-19 HiBiT fibulin-3 | HiBiT luminescence |  | 5 µM |  | fibulin-3 level | -69.6% |
| Cc1nc(Nc2ncc(C(=O)Nc3c(C)cccc3Cl)s2)cc(N2CCN(CCO)CC2)n1 | iCell Cardiomyocytes (hiPSC-derived) | cellular impedance |  | concentration not given, 24 h | relative to: control | cell index | 104% |
| C[C@H]1CN(C2COC2)CCN1c1ccc(Nc2cc(-c3ccnc(N4CCn5c(cc6c5CC(C)(C)C6)C4=O)c3CO)cn(C)c2=O)nc1 | Ramos | calcium flux, FLIPR |  |  |  | maximal inhibition | ≤ 90% |
| CCCN1CCN(c2ccc3[nH]c(-c4ccc5[nH]c(-c6cc(OC)c(OC)c(OC)c6)nc5c4)nc3c2)CC1 | BT-549 | SRB |  | 10 µM, 48 h |  | growth percent | 83.2% |
| COc1cc2c(cc1O)[C@@H](Cc1ccc(O)c(Oc3cc4c(cc3OC)CCN(C)[C@@H]4Cc3ccc(O)cc3)c1)N(C)CC2 | 3T3-L1 | adipocyte lipid accumulation, Nile Red staining |  | 20 µM |  | inhibition | 37.4 ± 0.5% |
| O=C(/C=C/C=C/C=C/C1CCCCC1)NC1=C[C@@](O)(/C=C/C=C/C=C/C(=O)NC2=C(O)CCC2=O)[C@@H]2O[C@@H]2C1=O | syo1 | cell growth, inhibitor, CellTiter-Glo luminescence |  | 78 h | relative to: day 0 cell count | GI50 | 20.6 µM |
| Cc1nc(N(Cc2ccccc2)c2ccc3c(c2)/C(=C/c2ccccc2)C(=O)N3Cc2ccccc2)c2ccccc2n1 (mixture of isomers) | A549 | Transwell |  | 1 µM, 24 h | relative to: untreated | migration inhibition | 66.4% |
| Clc1ccc(C2(c3ccc(-c4cn[nH]c4)cc3)CCNCC2)cc1 | SK-OV-3 | ATP | 3D spheroid culture | 10 µM, 4 days, added: GA-017 10 µM | relative to: DMSO | relative cell number | 138% |
| CCn1cc(-c2cc(Cn3ccnc3)cc3c2CCN([C@H](c2cc(OC)ccn2)C2CC2)C3=O)c(C(F)(F)F)n1 | CAKI-2 | cell growth, inhibitor |  | 120 h |  | EC50 | 19.8 µM |
| Cn1c(Nc2nc3ccc(C(F)(F)F)cc3s2)nc2cc(C(=O)NCCOCCO)ccc21 | SH-SY5Y | RNA-seq, measured: ERRFI1 mRNA |  | 5 µM, 5 h | relative to: untreated cells | fold change | 1.66 |
| COc1cnc2cccc(N3CCc4c(cc(Cn5ccnc5C)cc4-c4cn(C)nc4C(F)(F)F)C3=O)c2c1 | RT-4 | cell growth, inhibitor |  | 120 h |  | EC50 | 4.79 µM |
| N#CC[C@H](C1CCCC1)n1cc(-c2ncnc3[nH]ccc23)cn1 | iCell Cardiomyocytes (hiPSC-derived) | xCELLigence Cardio impedance |  | concentration not given, 2 h | relative to: control | beat amplitude | 105% |
| COc1cccc2c1C(=O)c1c(O)c3c(c(O)c1C2=O)C[C@@](O)(C(=O)CO)C[C@@H]3O[C@H]1C[C@H](N)[C@H](O)[C@H](C)O1 | MDA-MB-231 and Vero | MTT |  |  | relative to: CC50 Vero over EC50 MDA-MB-231 | selectivity index | 0.9 |
| Cn1cc(-c2ccc(-c3cncc(Cl)c3N3CCC4(CCNC4=O)CC3)cc2)cn1 | COLO 205 | gene expression, microarray, measured: EGFR mRNA |  | concentration not given, 2 h | relative to: untreated cells | log2 fold change | -1.51 |
| Cc1cccc(C)c1NC(=S)N/N=C/c1ccc(N2CCC(O)CC2)cc1 | BEAS-2B and A549 | MTT |  |  | relative to: IC50 BEAS-2B over IC50 A549 | selectivity ratio | 8.1 |

| SMILES | cell line | test | test system | conditions | scale | quantity | result |
| --- | --- | --- | --- | --- | --- | --- | --- |
| CC(C)(C)c1cc(O)ccc1O | KRAS wild-type lung cancer cells | MTT |  | concentration not given, 48 h, 2D culture, single agent |  | cell viability | no effect |
| COc1ccc(-n2nc(C(C)=O)s/c2=N\N=C(/C)c2ccc(NC(=O)c3ccc(C)cc3)cc2)cc1 | HepG2 |  |  | 0.156 µM |  | toxicity | 46.2% |
| Cc1cccc(-c2[nH]c(CNc3ccccc3F)nc2-c2ccc3ncnn3c2)n1 | RPMI-8226 | flow cytometry, measured: CD108 |  | concentration not given | relative to: comparator compound alone | surface marker level | 54.6% |
| O=C(Oc1cc(O)cc2c1C[C@@H](OC(=O)c1cc(O)c(O)c(O)c1)[C@@H](c1cc(O)c(O)c(O)c1)O2)c1cc(O)c(O)c(O)c1 | Jurkat TAg T cells | phospho-flow cytometry |  | 500 nM, 30 min, 37 °C, added: TCR stimulation 2 min | relative to: DMSO | phospho-ZAP-70 positive cells | 22.8% |
| COc1cccc(-c2cccc(Cc3ncnc4cc(OC)c(OC)cc34)c2)c1 | A549 | mitochondrial oxygen consumption, Seahorse XF96 |  | 10 µM |  | inhibition | 58% |
| CCN1CCN(Cc2ccc(NC(=O)Nc3ccc(Oc4cc(NC)ncn4)cc3)cc2C(F)(F)F)CC1 | iCell Cardiomyocytes (hiPSC-derived) | xCELLigence Cardio impedance |  | concentration not given, 2 h | relative to: control | beat rate | 77.4% |
| COc1ccc2c(N(C)c3ccc(/C(C)=N/OCCN)cc3)c3c(Cl)coc3nc2c1 | LNCaP C-81 | MTT |  | 1 µM, 72 h, steroid-reduced medium |  | viability reduction | ≥ 50% |
| CN1CC[C@H](c2c(O)cc(O)c3c(=O)cc(-c4ccccc4Cl)oc23)[C@H](O)C1 | iCell Cardiomyocytes (hiPSC-derived) | xCELLigence Cardio impedance |  | concentration not given, 2 h | relative to: control | beat amplitude | 98.8% |
| O=C(C[C@@H](C(F)F)n1ccc(F)n1)N1CCC(O)(Cn2cnc3c(cnn3-c3ccc(F)cc3)c2=O)CC1 | CHP-212 parental (wild-type USP7) | annexin V-PI flow cytometry |  | 0.1 µM, 48 h |  | viable cells (annexin V-/PI-) | 74.7% and 75.7% and 74.2% |
| C=CC(=O)N1CCC([C@@H]2CCNc3c(C(N)=O)c(-c4ccc(Oc5ccccc5)cc4)nn32)CC1 | Ramos | calcium flux, FLIPR |  | 1 h preincubation |  | IC50 | 0.00916 µM |
| OCc1nc2ccc(NCc3ccc(F)cc3)cc2[nH]1 | sample A patient iPSC NPCs | cell protection, MTS |  | up to 100 µM, 24 h |  | Emax | 13% |
| CC/C(=N\NC(=O)C(C)Nc1ccccc1)c1ccc(O)c(C)c1O (centres unmarked) | SK-OV-3 | Western blot, measured: YAP |  | 10 µM, 6 h, 3D gellan gum culture, unit not given | relative to: β-actin | protein level | 1.18 ± 0.55 |
| O=C(c1ccc(/C=C/c2n[nH]c3ccccc23)cc1)N1CCNCC1 | iCell Cardiomyocytes (hiPSC-derived) | CellTiter-Glo |  | concentration not given, 24 h | relative to: control | ATP level | 96.7% |
| Cc1cc(Nc2ncc(Cl)c(Nc3ccccc3S(=O)(=O)C(C)C)n2)c(OC(C)C)cc1C1CCNCC1 | CLB-GE | phosphoproteomics LC-MS/MS, measured: SLC20A2 phosphorylation |  | 200 nM, 60 min | relative to: untreated | log2 fold change | -2.64 |
| Cn1cc(-c2ccc(F)c(C(F)(F)F)c2)nc1C1CCN(c2ncnc3[nH]ncc23)CC1 | SK-OV-3 | ATP |  | 1 µM, 4 days, 3D U-bottom low-attachment | relative to: untreated | relative cell number | 118% |
| O=C(NO)c1ccc(Cn2cnc3c(Nc4cccc([N+](=O)[O-])c4)ncnc32)cc1 | HEL venetoclax-resistant cells | cell viability, MTT |  | 48 h, added: venetoclax |  | sensitizing concentration | 2.5 µM |
| COc1cc(Nc2c(C#N)cnc3cc(OCCCN4CCN(C)CC4)c(OC)cc23)c(Cl)cc1Cl | iCell Cardiomyocytes (hiPSC-derived) | xCELLigence Cardio impedance |  | concentration not given, 2 h | relative to: control | beat amplitude | 98.4% |
| C=CC(=O)N1CCC[C@@H](n2nc(-c3ccc(Oc4ccccc4)cc3)c3c(N)ncnc32)C1 | TMD8 RAC2 knockout | calcium flux, FLIPR |  | concentration not given, 2 h preincubation |  | inhibition | 98.6% |
| Cc1ccc(NC(=O)c2ccc(CN3CCN(C)CC3)cc2)cc1Nc1nccc(-c2cccnc2)n1 | iCell Cardiomyocytes (hiPSC-derived) | xCELLigence Cardio impedance |  | concentration not given, 2 h | relative to: control | beat rate | 101% |
| Cn1cnc2c(F)c(Nc3ccc(Br)cc3F)c(C(=O)NOCCO)cc21 | A549 |  |  | 10 µM, 72 h |  | viability | 48.8% |
